Results of several laboratories.
Parts stem from different laboratories: compare values within a part only. Substitutions count along the parent as printed.

Series 1 — method: RNA Bind-n-Seq; molecule type: RNA; medium: in vitro; tested at: 1 µM; setting: whole 134-nt RNA, ends assumed; together with: 150 mM KCl; reference: input library; direction: higher = stronger binding
Target: Ras GTPase-activating protein-binding protein 1, C-terminal RGG region (G3BP1, Homo sapiens, UniProt Q13283)
Chain of UniProt Q13283 (whole entry, looked up): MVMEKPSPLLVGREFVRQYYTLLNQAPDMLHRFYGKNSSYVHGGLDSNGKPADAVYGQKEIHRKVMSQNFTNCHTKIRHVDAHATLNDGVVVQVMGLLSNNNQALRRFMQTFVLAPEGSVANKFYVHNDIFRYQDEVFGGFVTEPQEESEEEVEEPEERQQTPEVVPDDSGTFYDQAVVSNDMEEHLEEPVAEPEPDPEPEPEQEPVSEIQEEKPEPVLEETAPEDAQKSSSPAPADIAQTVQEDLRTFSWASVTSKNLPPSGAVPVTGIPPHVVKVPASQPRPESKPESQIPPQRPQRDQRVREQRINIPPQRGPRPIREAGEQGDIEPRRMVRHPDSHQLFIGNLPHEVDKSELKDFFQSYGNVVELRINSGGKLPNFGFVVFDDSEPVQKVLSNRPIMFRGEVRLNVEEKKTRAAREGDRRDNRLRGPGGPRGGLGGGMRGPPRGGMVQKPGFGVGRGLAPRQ
All sequences stand within: GGGAGUUCUACAGUCCGACGAUC … UGGAAUUCUCGGGUGUCAAGG
Strand	log2 enrichment
CAAGUCCUGUGCUACACAUCGUAUGUACCGAAUCGGUGGUUUUUUUGGUUUUUGGAAAGUAUUAUGUUACGCCGUUCGGAUCUGCACUUC	-1.39
CACAGACAACACGCACCCACACAGACACAGAGGGAAGGGGUUGGGAUGGGGACAGGGUGCACAGCAGGGCGUGGUAGGACCCCAGCCCCU	-0.394
CCUCAAGUCCUGUGCUACACAUCGUAUGUACCGAAUCGGAGGGGAGGGGAGGAAAGUAUUAUGUUACGCCGUUCGGAUCUGCACUUCCAG	-0.64
UCCUCAAGUCCUGUGCUACACAUCGUAUGUACCGAAUCGGAGGAGGGAGGGAAAGUAUUAUGUUACGCCGUUCGGAUCUGCACUUCCAGC	-0.746
GUCCUGUGCUACACAUCGUAUGUACCGAAUCGGGGCCCCCGGGCCCCCGGGCCCCCGGGAAAGUAUUAUGUUACGCCGUUCGGAUCUGCA	-1.4
CCUCAAGUCCUGUGCUACACAUCGUAUGUACCGAAUCGGGGUGGGUGGGGUGGAAAGUAUUAUGUUACGCCGUUCGGAUCUGCACUUCCA	1.15
UCCUGUGCUACACAUCGUAUGUACCGAAUCGGGUUUUUUGGGUUUUUUGGGGUUUUUUGGAAAGUAUUAUGUUACGCCGUUCGGAUCUGC	-0.263
CACAGACAACACGCACCCACACAGACACAGAGGGAAGGGGUUGGGAUGGCGACAGGGUGCACAGCAGGGCGGGGUAGGACCCCAGCCCCU	-0.506
GCAGGAAGUAAAAACAAAUGGAAAUGCUUCGGAUAGUGGCAGGGGUGGGGGUUGCUAAGGAAAGGGUGGGAUGGGAGUGGGUAAAAAGUU	2.05
UGUCGGGGCCAAAGUGGUAACGAACGCCCGCAGCCCGGGGGCUCGAUGCUAUGGAUUCGUCACCAUGUCGACAUCUGACGAGGCGACCAA	-2.58
AAAGGAAGUAAAAACAAAUGGAAAUGCUUCGGAUAGUGGCAGGGGUGGGGGUUGCUAAGGAAAGGGUGGGAUGGGAGUGGGUAAAGAGUU	1.66
UUCUCUGCCGGCUCAGAGGAGAGGAGACGCCGUGAGCGGGACGACCAGAUGUACCGAGAGCGGCUGCGCACCUUGCUGGUCAUCGCGGUU	-1.8
CAAGUCCUGUGCUACACAUCGUAUGUACCGAAUCGGGGAAAGGGAAAGGGGAAAGGAAAGUAUUAUGUUACGCCGUUCGGAUCUGCACUU	-1.07
CCUGUGCUACACAUCGUAUGUACCGAAUCGGGGCCCCCCGGCCCCCCGGGGCCCCCCGGGAAAGUAUUAUGUUACGCCGUUCGGAUCUGC	-1.45

Series 2 — target: CRIPT, C-terminal peptide; method: DHFR complementation, deep sequencing; medium: yeast; reference: wild type; direction: higher = weaker binding
Setting: single substitutions, model-inferred values
Parent: ERBIN, PDZ domain 1 (human); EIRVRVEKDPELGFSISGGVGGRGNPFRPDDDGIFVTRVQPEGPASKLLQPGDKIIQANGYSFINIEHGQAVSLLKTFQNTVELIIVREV; partner TKNYKQTSV
Substitution	binding free energy change [kcal/mol]
F63E	1.18
I66F	-0.0134
I64K	-0.00494
F63P	0.458
V4A	0.126
L74H	0.0858
V20P	1.45
G18K	1.46
L48F	0.0165
I55F	0.725
A71G	0.198
I34F	0.709
V4Q	0.946
G52Y	1.02
Q79T	-0.00141
N65K	0.144

Series 3 — method: protein binding microarray; molecule type: double-stranded DNA, one strand shown; medium: in vitro; tested at: not given; reference: not given; direction: higher = stronger binding
Target: Histone acetyltransferase KAT6A, winged helix 2, GST fusion (KAT6A, Homo sapiens, UniProt Q92794, residues 85-181)
Setting: 8-mer, flanks averaged, mean of 2 arrays, mostly near background
Target sequence (chain): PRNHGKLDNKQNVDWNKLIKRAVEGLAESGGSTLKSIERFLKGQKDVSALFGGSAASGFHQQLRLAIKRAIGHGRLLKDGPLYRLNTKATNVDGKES
Strand	E-score
ATAACCAA	-0.0547
ATCGAACC	0.0143
CGGGTAAA	0.0763
GCTTAGCC	0.0692
AGTTGTAG	-0.0609
CGTACACC	-0.147
CCTTTATC	-0.0351
AGCTTTGG	-0.131
CCCGGGAA	0.164
CTTTAAGA	0.156
CCTTGTCC	0.0988
TGCCCTAA	0.0544
ACTAGAGA	-0.0807
GGGCATAC	0.108
CAACGAAA	0.0908
AGACTGCG	0.0709
ACAAAGTA	0.115
CCTCGATC	-0.00563
TGCGGGAA	0.17
AATATGCG	-0.109
ATCAATGA	0.0681
ACCATGGC	0.114
CTCGGGAC	0.0715
TCACTCCA	-0.17
CGCGGAAG	0.0445

Series 4 — target: CCNA1, cyclin fold, Cln2 fusion (human); method: yeast growth competition, sequencing; medium: yeast; setting: weak parent motif; reference: not given; direction: higher = stronger binding
Parent: SGO1 docking peptide (human); PLAKRALKYTDEK
Substitution	normalised enrichment score
PLAARALKYTDEK [K4A]	0.41
PLAKRALKYTDEA [K13A]	0.414
PAAKRALKYTDEK [L2A]	0.703
PLAKRALKYTDAK [E12A]	0.359
PLAKRALKYTAEK [D11A]	0.151
PLAKRAAKYTDEK [L7A]	0.0888

Series 5 — method: aptamer microarray, sandwich; molecule type: DNA with 2'F-ANA; medium: in vitro; tested at: 200 nM; together with: Cy3 exosite-II aptamer, 400 nM; direction: higher = stronger binding; strand: GGTTGGTGTGGTTGG
Target: Prothrombin, mature alpha-thrombin (F2, Homo sapiens, UniProt P00734)
Setting: whole 15-mer aptamer, many near background
Modification	mean fluorescence intensity [a.u.]
2'F-ANA at 5 9 12 15	155
2'F-ANA at 4 5 6 8 10 12 14 15	69.7
2'F-ANA at 2 4 8 11 13 14 15	90.5
2'F-ANA at 1 4 6 10 13 14	48.1
2'F-ANA at 1 2 7 8 10 11 13	51.7
2'F-ANA at 1 2 4 5 8 10 14 15	47.2
2'F-ANA at 3 4 5 7 9 11 13 14 15	52.3
2'F-ANA at 2 4 5 9 10 14	53.3
2'F-ANA at 1 5 10 13 14	44.1
2'F-ANA at 1 6 7 10 11 12 14	49.9
2'F-ANA at 1 2 4 6 7 8 11 12 15	236
2'F-ANA at 2 5 7 8 10 11 12 15	49.2
2'F-ANA at 1 4 5 6 8 10 11 12 13 14 15	50.6
2'F-ANA at 3 4 5 6 8 9 12 13 14	53.4
2'F-ANA at 1 2 3 5 7 8 9 10 13 14	51.9
2'F-ANA at 1 3 4 5 6 7 8 9 11 12 13 15	74.1
2'F-ANA at 3 5 6 9 12 13 14 15	52.5
2'F-ANA at 3 5 6 11 12	271
2'F-ANA at 2 3 4 5 6 7 11 12 13 14 15	52.1
2'F-ANA at 4 7 10 13	69.1
2'F-ANA at 1 2 5 8 10 11 13 15	48.2
2'F-ANA at 1 2 3 6 9 10 11 12 13 14 15	55.5

Series 6 — target: CEBPB, bZIP domain (human); method: DHFR protein complementation; medium: yeast; reference: wild-type JUN-FOS pair; direction: higher = stronger binding
Setting: single substitutions, most at no-binding floor
Parent: JUN, bZIP domain (human); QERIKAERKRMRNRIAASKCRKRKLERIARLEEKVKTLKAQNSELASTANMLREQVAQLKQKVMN; partner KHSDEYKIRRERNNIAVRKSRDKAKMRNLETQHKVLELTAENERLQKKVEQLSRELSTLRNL
Substitution	binding fitness [natural log]
N42A	-1.5
E44G	-1.47
L45E	-1.52
K39P	-1.52
E44I	-1.4
L38E	-1.5
M51T	-1.24
R30F	-1.35
L45A	-1.58
A29I	-1.41
I28H	-1.26
L38N	-1.5
K34L	-1.15
S47H	-1.33
R53I	-1.38
E33G	-1.41
A49Y	-1.19
Q55W	-1.41
Q55R	-1.42
Q41T	-1.38
S47E	-1
A40G	-1.42
E32K	-1.4
L52A	-1.46
V56L	-1.35

Single results of other studies
Substance	tested on	assay	test system	conditions	scale	quantity	value
USO1 (Homo sapiens, UniProt O60763)	DNAH2 (Homo sapiens, UniProt Q9P225)	cross-linking MS	cell fractions	together with: DHSO	–	cross-linked residues	D783 to D3109
PhoQ, residues 284 288 289 292 302 303 TVTVVA	PhoP, residues 12 14 15 18 19 VQGLL (Escherichia coli, UniProt P23836)	Sort-seq, item: YFP reporter	E. coli	PhoQ-PhoP variant library, together with: 10 µM Mg2+	reference: high Mg2+ state, higher = stronger signaling	fold induction	16.1
ATP5F1D (Homo sapiens, UniProt P30049)	ATP5MK (Homo sapiens, UniProt Q96IX5)	cross-linking MS	–	hits only	–	interaction screen	cross-linked
SRSF1 (Homo sapiens, UniProt Q07955)	SRSF4 (Homo sapiens, UniProt Q08170)	cross-linking MS	cell fractions	together with: DSSO	–	cross-linked residues	K165 to K95
VPS11 (Homo sapiens, UniProt Q9H270)	VPS18 (Homo sapiens, UniProt Q9P253)	cross-linking MS	cell fractions	together with: DSSO	–	cross-linked residues	K909 to K481

Repeated from above (series 3):
Strand	E-score
ACTAGAGA	-0.0807
CGTACACC	-0.147
CCTTTATC	-0.0351
AATATGCG	-0.109
TGCGGGAA	0.17
ATAACCAA	-0.0547
ATCAATGA	0.0681
CCCGGGAA	0.164
CGCGGAAG	0.0445
TGCCCTAA	0.0544
CTTTAAGA	0.156
GCTTAGCC	0.0692
AGTTGTAG	-0.0609
ACAAAGTA	0.115
TCACTCCA	-0.17
